Results of several laboratories.
Compare with care: the assays were run in different laboratories. ± marks the error that the study gave.

[2H]C([2H])([2H])C([2H])([2H])C([2H])([2H])OC(C(=O)OC1CCNCC1)(c1ccccc1)c1ccccc1 gave a Cmax of 0.0864 µg/mL (healthy Japanese male subjects, plasma; oral, 8 mg once daily, day 16, fed, mean).
CC(C)(C)CC(C)(C)Nc1c(-c2ccc3c(c2)OCO3)nc2cnccn12 has an LD50 of under 2000 mg/kg (Wistar rat; oral, 14 days).
CC(C)C[C@H](NC=O)C(=O)N[C@@H](C)C(=O)N[C@@H](C)C(=O)N[C@@H](CC(=O)O)C(=O)N[C@@H](CC(C)C)C(=O)N[C@@H](CC(C)C)C(=O)N[C@@H](C)C(=O)N[C@@H](C)C(=O)N[C@@H](CC(C)C)C(=O)NCC(=O)N[C@@H](CC(=O)O)C(=O)N[C@@H](CC(C)C)C(=O)N[C@@H](C)C(=O)N[C@@H](CCCCN)C(=O)N[C@@H](Cc1c[nH]c2ccccc12)C(=O)N[C@@H](CC(C)C)C(=O)N[C@@H](CC(C)C)C(=O)N[C@@H](CC(=O)O)C(=O)N[C@@H](C)C(=O)N[C@@H](CC(C)C)C(=O)N[C@@H](C)C(=O)N[C@@H](CCCCN)C(=O)N[C@@H](C)C(=O)N[C@@H](C)C(=O)N[C@@H](CCCCN)C(=O)N[C@@H](CCCCN)C(=O)O (racemic) gave a helicity of 54% (circular dichroism; phosphate buffer 10 mM; 1 to 5 µM, pH 7.5, approximate).
The dead embryos of CC(C)C(=O)OC1O[C@@H]2O[C@@]3(C)CC[C@H]4[C@H](C)CCC([C@H]1C)[C@@]24OO3 (stereo partly drawn) is reported as 5 count (Tg(fli1:EGFP) zebrafish embryos; 10 µg/mL, up to 48 hpf).
C[C@@H](O)[C@H](NC(=O)[C@H](CCCCN)NC(=O)CCC(=O)O)C(=O)NCC(=O)N[C@@H](CC(=O)O)C(=O)N[C@@H](CCC(=O)O)C(=O)N[C@@H](CCCCN)C(=O)N[C@@H](CCCCN)C(=O)NCC(=O)NCC(=O)N[C@@H](Cc1ccc(O)cc1)C(=O)NCC(=O)N[C@@H](CCCNC(=N)N)C(=O)N[C@@H](CCCCN)C(=O)N[C@@H](CCCCN)C(=O)N[C@@H](CCCNC(=N)N)C(=O)N[C@@H](CCCNC(=N)N)C(=O)N[C@@H](CCC(N)=O)C(=O)N[C@@H](CCCNC(=N)N)C(=O)N[C@@H](CCCNC(=N)N)C(=O)N[C@@H](CCCNC(=N)N)C(N)=O gave an HPLC purity of 100% (PBS; up to 24 h, pH 7.4, 80 °C).
COc1cc(NC(=O)C(=O)c2c(C)n(Cc3ccc(Cl)cc3)c3ccc(C)cc23)ccn1 has an oral bioavailability of 14 to 31% (cynomolgus monkey, female, plasma; oral, 10 mg/kg, range of individual values).
Under “AUC extrapolated to infinity”, O=c1cc(-c2ccccc2)oc2c(Br)c(O)c(O)c(O)c12 is recorded as 7.9 ± 6.3% (C57BL/6 mouse, plasma; intravenous, 10 mg/kg).
COC(=O)C[C@](O)(CCCC(C)(C)OC(C)=O)C(=O)O[C@@H]1C(OC)=C[C@]23CCCN2CCc2cc4c(cc2[C@H]13)OCO4 — result for tissue concentration: “not detected” (CD1 mouse, bone marrow; subcutaneous, 1 mg/kg, 24 h, below quantification limit 1.00 ng/mL).
CC[C@H](C)C(=O)N1CCC(NC(=O)Nc2ccc(OC(F)(F)F)c(F)c2)CC1: “subjects with any TEAE” 66.7% (healthy volunteers; oral, 2 mg single dose, 14 (unit not given)).
For CCCCCCCCCCCCC(=O)O.O=C1CCCC2C3CCCN4CCCC(CN12)C34 (stereo not drawn), “entropic term −TΔS of micellization” read -30.8 kJ/mol (electrical conductivity; water; 303.15 K, critical micelle concentration).
CC(C)[C@H](NC(=O)CNC(=O)[C@H](CCC(N)=O)NC(=O)[C@H](C)N)C(=O)O — result for “subjects with adverse events”: 50% (unlikely related or unrelated; human; 45 mg/kg/h, 2 h, continuous infusion).
Under plasma stability, CCN(CC)CCOc1ccc(-c2nnn(Cc3ccc(OC)cc3)c2N)cc1 is recorded as “stable” (in vitro incubation; human plasma; 120 min).
With CC(C)C[C@@H](NC(=O)[C@@H](CCCCN)NC(=O)CNC(=O)CNC(=O)[C@@H]1CSSC[C@H](N)C(=O)NCC(=O)N[C@@H](CCCNC(=N)N)C(=O)N[C@@H](CCCNC(=N)N)C(=O)N[C@@H](C)C(=O)NCC(=O)NCC(=O)N[C@@H](CO)C(=O)N1)C(=O)N[C@H](C)C(=O)N[C@H](CCCCN)C(=O)N[C@H](CC(C)C)C(=O)N[C@H](C)C(=O)N[C@H](CCCCN)C(=O)N[C@H](CCCCN)C(=O)N[C@H](CC(C)C)C(=O)N[C@H](C)C(=O)N[C@H](CCCCN)C(=O)N[C@H](CC(C)C)C(=O)N[C@H](C)C(=O)N[C@H](CCCCN)C(=O)O the clearance was 37.7 mL/min (cynomolgus monkey, plasma; intravenous, 3 mg/kg, infusion).
CCCCCCCC(=O)SCC/C=C/[C@@H]1CC(=O)NCc2nc(cs2)C2=N[C@@](C)(CS2)C(=O)N[C@@H](C(C)C)C(=O)N1 has an AUC of 0.745 µg·h/mL (measured: thiol form; NIH Swiss mouse, female, whole blood; iv, 5 mg/kg).
CC(C)C[C@H](NC(=O)[C@H](CCCCN)NC(=O)[C@H](CCC(=O)O)NC(=O)[C@H](C)NC(=O)[C@@H](NC(=O)[C@H](CCCCN)NC(=O)[C@H](CC(=O)O)NC(=O)[C@H](Cc1ccc(O)cc1)NC(=O)[C@H](Cc1ccccc1)NC(=O)[C@H](C)NC(=O)[C@H](CCCCN)NC(=O)[C@H](CC(C)C)NC(=O)[C@H](Cc1c[nH]c2ccccc12)NC(=O)[C@@H](N)CC(=O)O)C(C)C)C(=O)N[C@@H](CCCCN)C(=O)N[C@@H](CCC(=O)O)C(=O)N[C@@H](C)C(=O)N[C@@H](Cc1ccccc1)C(=O)N1CCC[C@H]1C(=O)N[C@@H](CC(=O)O)C(=O)N[C@@H](Cc1c[nH]c2ccccc12)C(=O)N[C@@H](C)C(=O)N[C@@H](CCCCN)C(=O)N[C@@H](C)C(=O)N[C@@H](C)C(=O)N[C@@H](Cc1ccc(O)cc1)C(=O)N[C@@H](CC(=O)O)C(=O)N[C@@H](CCCCN)C(=O)N[C@@H](C)C(=O)N[C@@H](C)C(=O)N[C@@H](CCC(=O)O)C(=O)N[C@@H](CCCCN)C(=O)N[C@@H](C)C(=O)N[C@@H](CCCCN)C(=O)N[C@@H](CCC(=O)O)C(=O)N[C@@H](C)C(=O)N[C@@H](C)C(=O)O gave a Vss of 0.053 L/kg (LC-MS/MS; cynomolgus monkey, male, plasma; IV infusion, 75 mg/kg/dose, day 1, 30 min infusion).
For N=C(N)NCc1ccc(C(=O)NCCCC[C@H](NC(=O)CCCCCCC(=O)NCCCC[C@H](NC(=O)N[C@@H](CCC(=O)O)C(=O)O)C(=O)O)C(=O)O)cc1[211At], the tissue uptake was 0.21 ± 0.03 %ID/g (SCID mouse, PC-3 xenografts, muscle; 2 h).
COC(=O)C[C@H](NC(=O)[C@H](C)NC(=O)[C@@H](NC(=O)[C@H](CC(=O)OC)NC(=O)[C@@H](NC(=O)c1ccc2ccccc2n1)C(C)C)C(C)C)C(=O)COc1c(F)cccc1F has a heart rate of 344 ± 12 beats/min (rat pups; 1 mg/kg, 1 h).
Under “parent drug release”, C#Cc1c(F)ccc2cc(O)cc(-c3ncc4c(N5CC6CCC(C5)N6C(=O)CC(C)CC(=O)OCC)nc(OC[C@@]56CCCN5C[C@H](F)C6)nc4c3F)c12 (stereo partly drawn) is recorded as “not detected” (mouse liver microsomes; 60 min, together with: NADPH).
For COCC(=O)NCCSc1c(-c2ccc(Br)cc2)[nH]c2ccccc12, the hepatocyte CLint was 259 µL/min/10⁶ cells (metabolic stability; human, hepatocytes).
For CC1=CC(C)(C)N=C2C=CC(=O)C=C12, “mean PCE/NCE ratio reduction” read 30% (female rats, bone marrow; oral, 350 mg/kg, 48 h; baseline: vehicle).
With CSCC[C@@H]1NC(=O)[C@@H]2CSSC[C@H](NC(=O)[C@H](CO)NC(=O)[C@H](C)N)C(=O)N[C@@H](CCCNC(=N)N)C(=O)N[C@@H]([C@@H](C)O)C(=O)N3CCC[C@H]3C(=O)N[C@@H](CCCCN)C(=O)N[C@@H](CC(=O)O)C(=O)N[C@H]3CSSC[C@H](NC(=O)[C@H](CCCCN)NC(=O)[C@H](CCCNC(=N)N)NC(=O)[C@H](CC(N)=O)NC1=O)C(=O)N[C@@H](CCCCN)C(=O)N[C@H]1CSSC[C@H](NC(=O)[C@@H]4CCCN4C(=O)[C@H](CC(=O)O)NC(=O)[C@H](C)NC3=O)C(=O)N[C@@H](C)C(=O)N[C@@H](CCCCN)C(=O)N[C@@H](CCC(=O)O)C(=O)N[C@@H]([C@@H](C)O)C(=O)NCC(=O)N[C@@H](CSSC[C@@H](C(N)=O)NC(=O)[C@H](CCCNC(=N)N)NC(=O)[C@H](CC(N)=O)NC1=O)C(=O)N1CCC[C@H]1C(=O)N[C@@H](Cc1ccc(O)cc1)C(=O)NCC(=O)N[C@@H](CCCCN)C(=O)N2 the Potassium was 4.56 mmol/L (DA rat pristane-induced arthritis, serum; subcutaneous, 0.1 mg/kg once weekly, 21 days).

Some of these lines once more:
Under “parent drug release”, C#Cc1c(F)ccc2cc(O)cc(-c3ncc4c(N5CC6CCC(C5)N6C(=O)CC(C)CC(=O)OCC)nc(OC[C@@]56CCCN5C[C@H](F)C6)nc4c3F)c12 (stereo partly drawn) is recorded as “not detected” (mouse liver microsomes; 60 min, together with: NADPH).
For COCC(=O)NCCSc1c(-c2ccc(Br)cc2)[nH]c2ccccc12, the hepatocyte CLint was 259 µL/min/10⁶ cells (metabolic stability; human, hepatocytes).
